# Assay results collected from several papers.
# Every numbered part comes from another study and shows a few of its results, in no order.

# Study 1
# Target: Centromere-binding protein 1, full length, His-tagged (CBF1, Saccharomyces cerevisiae, UniProt P17106, residues 1-351)
# Sequence of UniProt P17106 (whole entry, looked up): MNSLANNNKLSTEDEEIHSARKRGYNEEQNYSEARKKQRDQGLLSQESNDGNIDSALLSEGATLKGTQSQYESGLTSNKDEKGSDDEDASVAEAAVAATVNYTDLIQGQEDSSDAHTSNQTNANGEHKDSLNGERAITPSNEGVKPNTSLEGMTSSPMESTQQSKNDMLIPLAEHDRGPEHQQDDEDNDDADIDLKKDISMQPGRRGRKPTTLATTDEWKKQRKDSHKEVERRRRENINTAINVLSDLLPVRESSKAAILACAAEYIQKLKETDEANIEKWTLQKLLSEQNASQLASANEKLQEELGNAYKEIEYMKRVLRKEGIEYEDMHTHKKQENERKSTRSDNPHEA
# Technique: competition protein-binding microarray
# Form: double-stranded DNA, one strand shown
# Sample: in vitro
# Tested at: 2 µM
# Notes: whole 60-bp probe, lowest competitor level
# Together with: Pho4 competitor, 0.05 µM
# Direction: higher = stronger binding
# All sequences stand within: … GTCTTGATTCGCTTGACGCTGCTG
Strand,fluorescence intensity
AAAGCGGTAATTTGCTCAGTGGGTGCAGATATCTAT,68.7 a.u.
TAAGTTGTCAGGTTTCACGTGGCAACTACAAGAAAA,787 a.u.
CAGCCTTTAATTTTTCACGTGTGAAATTCGATAATT,1180 a.u.
AAATTACTAAGTTTTCACGTGCCTTACCCCGTATGA,1180 a.u.
CGTCCTAGTGATTTTCACGTGTACTCCATGAGGAAG,935 a.u.
GAAAACCTGGCTTGACTCGTGATGGCTTATTTAACG,337 a.u.
TAATACGGGCATGAACGCGTGCAAACAACTCGTCCT,86 a.u.
CGAATAACTTTCAAACGCGTGCGATGTTTGTTACCA,93.1 a.u.
CCCACTTGTCTTCGATGCGTGCTTTTGCCAATCAAC,87.2 a.u.
AGGCCAGTTGCTCAACACGCTACAAGAAGGCAGATG,78.8 a.u.
TTTTTCCTAACTTGCGACATGACAGAGCTTAAGGAC,75.2 a.u.
TTTGCAAGTATATATCTGTATGTATCCATATTTAGA,85.1 a.u.
GCTTTCGTACTGCTCCAGGTGTGGCTTGATGTCCTA,61.4 a.u.
GTCTTGTCTCATTCACACGTGTTTTTCCCCACTTCA,731 a.u.
TGGCCCTTTCACCAACACGTGCCAGTTTCCAGAAGG,2250 a.u.
TATTCCATCTTTTCCCTCGTGTTGACAATAGAGTCA,123 a.u.
CCGCGGATGATTTCTCACGTTTATCTGAAGAGGACT,98.8 a.u.
ACAATGGATCCAAATCATGTGCCAGGGAGTGAACCC,338 a.u.
TGTAGAAGCAAAAAGCACGTCGCCTTGGCTGATGAG,59 a.u.

# Study 2
# Target: RNA binding protein fox-1 homolog 2, RRM domain, GST-SBP tag (RBFOX2, Homo sapiens, UniProt O43251-10, residues 100-194)
# Technique: RNA Bind-n-Seq
# Form: RNA
# Sample: in vitro
# Tested at: 365 nM
# Notes: natural RNA segment, single round, ends assumed
# Reference: no-protein control
# Direction: higher = stronger binding
# All sequences stand within: GGGAGUUCUACAGUCCGACGAUC … UGGAAUUCUCGGGUGCCAA
# Residues (chain): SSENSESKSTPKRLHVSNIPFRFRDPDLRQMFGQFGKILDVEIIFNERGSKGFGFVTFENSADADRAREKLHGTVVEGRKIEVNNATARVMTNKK
Strand,RBNS enrichment (R)
UGUCCAACCAGCUACCCACCUCAACUCCCCUGUAGUUUAGGACACAAAACAGCUACCAGCGGUACAGAGCGGUGAUCAAAGCCGAGUACUUACAACUCUGGUAAGCCUAG,0.396
ACAAAUUAACUUGAAUUUCUAUGUAAGGUGGUGGGGGGGGGAACUCUAAUAAACAUGAACUAGAGGGAACUUCCAGCGUGUCCUUUCUGUGUGCUAAUGUCUAUCUGGUA,0.632
GAUGUUGGUCCACAUUGUCAAGAAGUCAUGUAAUAAUAAUAAAUACAUAUUCUACCUGCUACUUGAACCAUGAGUUUUGCACACCAGAGGUUUAAUGUUUAAGUGUUGGA,0.524
GGCCUCCUGAAGCCUUGUCACAACUGGAAACACUUGAAAGGGGACCUCAGAGCCAGCCAUUGCUGGUGUCUGGAGUCUCCCAGACCACUCACUGCUUCUUGCCAGUUAUG,0.198
GCUUUGGCAUGCUCUGACCGCUCCUCUGUCACCUGCUUGGCUCCCAAGCUCUCUAGAGCAUCUGGACACAUGUUAACAAGCAUAGCCACUGACCUUAACCACAACCAUUA,1.11
AAUCCAGCAUAUUUAAGAGGUAAUCCUGUGUUUUCUGCAACAUUGAGGCAUUCAUACAGAGCUGCAGUUAGGCAGAGUUGCGGGGCUAGAAGCAGAAGCAGACAUCCCAU,0.645
CUUGGCCACUCUGGCCCUGAGCCUGGCUGAAUAGCAGGGCCCGUGUGUGUAGGCUCCCUUCUCACCCCAGGCACCUAGGAGCCCUCUUGCCAGUUCCUCUCUCGCUCUGU,0.477
AUAAGUUCCACUGUACAAUGUCCUUUUCAGGUGGAAUUUUCUCUAUUGCUUUGAUAAACAGAGUUGUUUGGAAUUAUUGAAGAACAUUUUAAAAUGACUCCCUCAGUGAG,0.56

# Study 3
# Target: Sal-like protein 4, full length isoform A (SALL4, Homo sapiens, UniProt Q9UJQ4, residues 1-1053)
# Sequence of UniProt Q9UJQ4 (whole entry, looked up): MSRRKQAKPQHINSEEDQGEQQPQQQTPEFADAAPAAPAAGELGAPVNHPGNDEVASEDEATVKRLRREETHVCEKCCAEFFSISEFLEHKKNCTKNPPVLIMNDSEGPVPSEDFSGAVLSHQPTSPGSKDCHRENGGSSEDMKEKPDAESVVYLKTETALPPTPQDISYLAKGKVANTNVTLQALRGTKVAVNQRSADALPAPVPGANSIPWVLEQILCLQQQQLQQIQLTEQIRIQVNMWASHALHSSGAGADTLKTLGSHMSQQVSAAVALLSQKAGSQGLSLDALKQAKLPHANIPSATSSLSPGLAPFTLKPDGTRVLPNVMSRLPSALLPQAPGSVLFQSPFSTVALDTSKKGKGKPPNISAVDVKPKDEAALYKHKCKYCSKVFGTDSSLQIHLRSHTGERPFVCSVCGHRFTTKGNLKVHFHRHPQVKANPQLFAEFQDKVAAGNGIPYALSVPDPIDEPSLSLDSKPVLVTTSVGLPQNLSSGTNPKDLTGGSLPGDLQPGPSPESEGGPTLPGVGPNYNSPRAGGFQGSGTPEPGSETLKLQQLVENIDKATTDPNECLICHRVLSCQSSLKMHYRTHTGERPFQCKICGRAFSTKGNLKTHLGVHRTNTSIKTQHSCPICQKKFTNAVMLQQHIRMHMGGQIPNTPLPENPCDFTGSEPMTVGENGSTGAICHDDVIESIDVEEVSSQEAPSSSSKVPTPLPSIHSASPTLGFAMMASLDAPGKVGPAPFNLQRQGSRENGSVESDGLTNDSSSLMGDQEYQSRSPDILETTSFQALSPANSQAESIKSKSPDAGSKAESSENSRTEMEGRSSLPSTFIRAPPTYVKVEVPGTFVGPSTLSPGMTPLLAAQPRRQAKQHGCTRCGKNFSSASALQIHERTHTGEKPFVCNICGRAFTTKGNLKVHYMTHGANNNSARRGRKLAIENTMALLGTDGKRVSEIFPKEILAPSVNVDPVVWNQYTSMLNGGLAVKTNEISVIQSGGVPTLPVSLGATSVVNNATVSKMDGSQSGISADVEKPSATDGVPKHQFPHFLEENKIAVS
# Technique: universal PBM
# Form: double-stranded DNA, one strand shown
# Sample: in vitro
# Tested at: 600 nM
# Notes: 8-mer, flanks averaged, mean of replicates
# Direction: higher = stronger binding
Strand,E-score
GGCGGTCA,-0.317
GGCACTTA,-0.11
AGGGCAGA,-0.18
GGTTGGTA,0.0395
AAATTGAA,0.277
AACCTCCA,-0.1
ATAACAGC,0.183
CGTACACC,-0.0955
GTAATTAC,0.278
AAAATCCT,0.122
ATTACCAA,0.207
GCGTAGCA,-0.111
GCACTCTA,-0.0395
GTTATCTA,0.24
AACCCGGT,-0.359
AAAGTGAC,0.0241
CCTCGGGC,-0.299
CATCTGGA,-0.179
ACTGGGCC,-0.308
CGTTAGCC,-0.0994
GATCGCTA,-0.0823
CTACAGTC,-0.115
GAGTGTGA,0.105

# Study 4
# Target: Histone acetyltransferase KAT6A, both winged helices, GST fusion (KAT6A, Homo sapiens, UniProt Q92794, residues 1-181)
# Technique: protein binding microarray
# Form: double-stranded DNA, one strand shown
# Sample: in vitro
# Tested at: not given
# Notes: 8-mer, flanks averaged, mean of 2 arrays, mostly near background
# Reference: not given
# Direction: higher = stronger binding
# Construct (chain): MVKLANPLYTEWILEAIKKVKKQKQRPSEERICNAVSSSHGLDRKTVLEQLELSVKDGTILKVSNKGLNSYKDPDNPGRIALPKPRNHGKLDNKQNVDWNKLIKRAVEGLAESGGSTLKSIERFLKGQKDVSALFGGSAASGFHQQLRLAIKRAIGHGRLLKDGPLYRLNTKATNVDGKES
Strand,E-score
CGGCACGC,0.301
CGGCTTAC,0.236
ACAAATGA,-0.184
ATGAAGTG,-0.0865
ATATCTTA,-0.106
ATTTCAGG,-0.0416
GGAATCTA,-0.0617
CTTATACA,-0.057
TGGAGACA,-0.121
TAACCGCA,0.205
GGGGTAAC,-0.179
AACTTTAG,-0.00724
CAGTCTAG,-0.0799
AGTCCAAC,-0.189
CTCTCAGA,-0.153
CCCGTTAC,0.151
CCAACCTC,-0.0799
AACTTTAT,-0.0853
ACGCGCAG,0.236
ACAAGCTC,-0.142
ACCCCTCA,-0.15
AAAGAATC,-0.0691
GAACTTGA,-0.13
CGTAAGAA,0.00982
AGAATTCA,-0.093

# A few entries again (study 4):
Strand,E-score
TAACCGCA,0.205
GGGGTAAC,-0.179
AACTTTAG,-0.00724
CAGTCTAG,-0.0799
